Assay results gathered from unrelated publications.
Numbered parts are unrelated; each lists some results of a single study. Positions count from the first letter of the parent shown.

Study 1
Target: CCNB2, cyclin fold, Cln2 fusion (human)
Technique: yeast growth competition, sequencing
Medium: yeast
Setting: weak parent motif
Reference: not given
Reading: higher = stronger binding
Starting sequence: CDC25A docking peptide (human); PPHRRRLLFACSP
Change	normalised enrichment score
PPHRRLLLFACSP [R6L]	0.443
PPHRERLLFACSP [R5E]	0.245
PPHRRRLLRACSP [F9R]	1.21
PPHGRRLLFACSP [R4G]	0.451
PPHRARLLFACSP [R5A]	0.739
PPHRRRLLFACSC [P13C]	0.623
PPHRRRLLFAISP [C11I]	0.698
PPHRRRVLFACSP [L7V]	0.606
PPHRRRLLFACSA [P13A]	1.14
PPHRRRLLFADSP [C11D]	0.219
PPHRRRLLFACYP [S12Y]	0.598
PPHRRRLLFACPP [S12P]	0.433
PPIRRRLLFACSP [H3I]	0.46
PPHRRRLLFACSH [P13H]	0.561
IPHRRRLLFACSP [P1I]	1.08
PPHCRRLLFACSP [R4C]	0.315
PPHRRMLLFACSP [R6M]	0.682
PPHRNRLLFACSP [R5N]	0.111
PPHRDRLLFACSP [R5D]	0.115
RPHRRRLLFACSP [P1R]	0.638
PPHRRRLLFACKP [S12K]	0.387
CPHRRRLLFACSP [P1C]	-0.0193

Study 2
Target: Centromere-binding protein 1, full length, N-terminal tag (CBF1, Saccharomyces cerevisiae, UniProt P17106, residues 1-351)
Sequence of UniProt P17106 (whole entry, looked up): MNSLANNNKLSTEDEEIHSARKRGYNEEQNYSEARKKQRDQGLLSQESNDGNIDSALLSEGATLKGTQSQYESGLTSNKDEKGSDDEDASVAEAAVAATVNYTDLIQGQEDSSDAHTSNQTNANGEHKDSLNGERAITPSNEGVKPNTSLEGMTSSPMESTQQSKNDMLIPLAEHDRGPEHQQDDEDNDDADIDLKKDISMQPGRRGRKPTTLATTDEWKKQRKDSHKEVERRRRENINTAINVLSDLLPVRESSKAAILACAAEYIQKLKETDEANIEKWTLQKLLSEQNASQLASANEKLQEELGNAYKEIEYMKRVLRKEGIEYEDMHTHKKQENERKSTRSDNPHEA
Technique: protein-binding microarray
Form: double-stranded DNA, one strand shown
Medium: in vitro
Concentration: 0.8 µM
Setting: whole 60-bp probe, no competitor
Reading: higher = stronger binding
Constant ends, left off below: … GTCTTGATTCGCTTGACGCTGCTG
Oligonucleotide	fluorescence intensity [a.u.]
GAAGATCTTTTCCATCACGCTAACACATGATAATAG	1210
GAAGAATTTCGTTGTCACGTTGTTTTGGTAAGTTAG	2590
GAAGGGGCTTTCGAACGTGTGATAGAAAACTGCTAG	617
GAACCGTACAACCGTCATCAGACTTGCATGGAATAG	528
GAACAGGATCTTTAAAAGGTGATGAAAGATGCATAG	544
CTATCACAGATTGTTAGCCTGATGTATACAGTATTC	529
CTATGTATCTTTCATCACCCTTTTGAGAGAATGTTC	563
CTACATCCTCATCATCATCACTGTCTTCTTCATTTC	585
CTATTAAAAACGATTCACGTGATATTCACGTGCTTC	18800
CTATATTTGAAAGGTCACCCGCCTATCGCAAAATTC	587
GAATTCATGTGCTTGCATGTGATGTCCTGCAGATAG	1610
CTATATAATTCTCATCGTGATTTACTAGGTAAATTC	596
CTAAAACGTAGTTAAGGCCACGTGGGAAAGATATTC	6350
GAACCTCCGCACCCGCACGTGACTACACCGGGTTAG	18600
GAATCAGTGGAGTGTCACCCCGGGAAGATATTCTAG	512
CCTAACTACTATAGACACGCTCTATAGCTTCGTACA	494
GAATGTGATAGTGAGAGTGACACGTATTAATATTAG	544

Study 3
Target: ABI1, truncated, D143A, DHFR fusion (Arabidopsis thaliana)
Technique: DHFR PCA, deep sequencing
Medium: yeast
Setting: methotrexate growth selection, single substitutions
Added: (+)-ABA 4.8 µM
Reference: wild-type fitted maximum
Reading: higher = stronger binding
Starting sequence: PYL1, truncated, DHFR fusion (Arabidopsis thaliana); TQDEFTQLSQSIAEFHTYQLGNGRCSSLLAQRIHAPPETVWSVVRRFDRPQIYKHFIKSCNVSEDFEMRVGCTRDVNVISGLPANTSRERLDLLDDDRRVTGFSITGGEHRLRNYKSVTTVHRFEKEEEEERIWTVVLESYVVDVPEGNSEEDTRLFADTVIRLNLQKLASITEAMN
Change	relative binding score
D3Y	55.8%
R98T	21.5%
D97R	64.1%
V40F	-32.6%
R46P	-16%
D48C	-38.2%
M68I	73.2%
S63A	80.2%
F15P	-18.3%
D95G	-5.24%
L156K	21.1%
E38S	55.5%
I33G	-0.348%

Study 4
Target: RNA binding protein fox-1 homolog 2, RRM domain, GST-SBP tag (RBFOX2, Homo sapiens, UniProt O43251-10, residues 100-194)
Technique: RNA Bind-n-Seq
Form: RNA
Medium: in vitro
Concentration: 365 nM
Setting: natural RNA segment, single round, ends assumed
Reference: no-protein control
Reading: higher = stronger binding
Constant ends, left off below: GGGAGUUCUACAGUCCGACGAUC … UGGAAUUCUCGGGUGCCAA
Oligonucleotide	RBNS enrichment (R)
GGAGGCCCCCAUGCUGUCUGAGGGGAGGCCGGCAUAGCCCCUCCUCGACUGUCGCCUGAGCAGCUGAUGAGGUCCCCAGCGCCGCACGCUGUGCUCCAGGGAGAGGAGCC	1.12
UAAGUGUCCAGGCUCAGAGCUGGUGAAAACCCUUCUGUUGGGCGUGUGCAGGGUUAAACUCCUGAAGUAACUUGUGAGGACUUCAGUGCUUGCUGGUGUCCUGGGCAGCA	10.2
AUGUGCCAGGCCCAGUCUUCCCACCCCAGCUGCUCCACUGGCCACCGCUAGAGCCCCUCUCCCUACCUUCUGCCUGUUUUCUCCAAUAAAUGCGGAAGGAGUUAAACUUC	0.741
GAGCGCAUGUCCCAGCCCCUGGUGGCCAGGCUCCCCUUGCUGAGCCGCUGCCACUUCACCCUGUGGGAAGUGGCCCCAGCCAUCUCCUCUAGACCAAGGCAGGCAGCCCC	5.95
UUUUUGGCUGUCAUUUCAAAAGUGGAAUAAAUUUAUUAAUUUAGUAGUACUAAAUGGUAUCCUUAGAUUAAAAUUUUGUGCUUGAUAACAGCUGUUUUUUCUACAUUAGA	0.474
CACUGACUGCAAACUGUCUCUUGCUCCUGAACUUCAAUAGCUGCCUUCCUCACCGCAGAUGUCUGUCUCCGAGAUCUGCAACCGUCUUGCUGACUAGGGCUUGGGCUAGA	0.779
CCCAGAGUGGCACUCAAAGUACUAUCAAACAAUAAAAGGAAAAUGGUGCUGUUUGAAGUUACAUCCCUUCUCUUUGGAGGAUUUAAAAAUGAUCUAUCUUUUGGUCCACU	0.548
AAAACCUUAGGGCAGUGUCUACAUGGGAAACAAGUAUGUGGAAAUUGACAAUCAUUUUUACCAAAUCGUUGAGUAAUAAUAUGACUUACCUGAUAGAUAUACACAUUCAA	0.366
GUUGUUUUUAGUGAGCAUGUUGUAGUCUCGACUGCAAAGAGAGAGAAUAAACUGCCCACUCAGAAGAUAUGUAAUUUGUAUCGUUGUAUAGUUUUAUUGAUUACACUGAU	0.647
CAUUUCAUUUGUUAAUUUAGUUGUGUGUGUGUGUUAAAAGGAGCUAAUGCUUAUUCUGUUAAUGUAAACUUUUGAAGAUCUUAAGUGUAUUGCUCUUUCAUCUUAAACAC	0.687
CUAUUUACUGGGCGGUAAAAGGGGUUUACCUCUCACCUUUGGUCAUUCCUAAGUUCCUAUCUCCUUCACACUGUACCUAGGGUGAUGGUUUCGGUCAGGCCAUCUCCAGC	0.387
GGAUUUUUAGCUUUGAGGAAAAACCAUGACUUUUAACAAAUUUUUAUGGGUUAUAUGCCUAAACCCUUAUGCCACAUAGUGGUAAAUAAUUAUGAAAAAUGGUCUGUUCA	0.941

Study 5
Target: RING finger protein unkempt homolog, zinc fingers 1-6, SBP tag (UNK, Homo sapiens, UniProt Q9C0B0, residues 30-357)
Sequence of UniProt Q9C0B0 (30-357, looked up): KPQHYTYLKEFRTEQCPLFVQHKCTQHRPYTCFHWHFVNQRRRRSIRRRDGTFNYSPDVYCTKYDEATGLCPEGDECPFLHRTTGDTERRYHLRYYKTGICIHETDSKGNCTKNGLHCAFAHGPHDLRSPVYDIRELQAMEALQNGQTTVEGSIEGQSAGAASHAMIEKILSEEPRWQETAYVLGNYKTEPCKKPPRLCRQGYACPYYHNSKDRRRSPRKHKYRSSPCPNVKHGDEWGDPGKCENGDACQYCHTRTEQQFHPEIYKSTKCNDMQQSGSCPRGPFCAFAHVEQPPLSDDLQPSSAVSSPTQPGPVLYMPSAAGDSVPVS
Technique: RNA Bind-n-Seq
Form: RNA
Medium: in vitro
Concentration: 100 nM
Setting: RNA with constant flanks, vertebrate orthologous sites, ends assumed
Reference: input RNA pool
Reading: higher = stronger binding
Constant ends, left off below: GGGAGUUCUACAGUCCGACGAUC … CAACAGAGGAUUGAGCAUCA
Oligonucleotide	bound/input enrichment
UUGGGACCAGCUCUCCAAAUAAGAAUAGUAGCAAAAAAAAUAAGCAAAAUGAUAUUUGUAUAGAAAAAACAGAAGCUAAAUCAUGUAAAGUAAAUGCUGCCAACGUAGCAAGCCCUAAAG	1.55 ratio
CUUUCUCCCCCACUGAGGGGGAGUGUGGGGAGCCCAGGAAGACCCUCAGCUGUUCUAAUCCAGUAUUUUUUUCUUUUUUAAAAUUACUGUAUUUAUUAUGACGAUGGUGACUCCCCAGUG	0.274 ratio
GGAAAGUUACAGACCAGACACUGAAAACAGGAGCACAGGAUCCUGGUUGUCGUCCUCUUUGAGGAACAGAUGUACACCUCUCUUCUCCAGAAGAAGAAGAGAAGGAAGAGAUGAAUCCAC	0.33 ratio
AUCACAGUUGCUUUUUACCACCUCAAUGAGGUAGAGUCUCUCUUGGCAUGUGGUUGUUACAAGAGCCAGUCGUACCUGACAAGUCUCUCCACAUUUCAUUUCUUUCACAUUCUUGGUCUU	0.582 ratio
CCGAAAGGCCAAAUUCCCUCCUCCCUUCUUCUGCUUCUACCAACUGGAAGCACAGAAAACUAGAAUUUCACUUAUUUUGUUUUUUAAAACAAUAUGAUUUCUUGUAACAUCCAAUAGGAA	0.586 ratio
GGCCAAACUUAUUUUUUGUUGUUUGUUUUUAACUUUUACUUUACAAAAUUUUUUUGUAGUUCCCUUACCUUGCCACACCAUUUUUAUGUCUCCUUCACUGAAGGGCUAGAGUUUUAACUU	0.367 ratio
AGCUUCUGGUGACAUUUGGCCUGGUCUUUCAGCAUAUGAUAACAGUCCAAGGUCGCCCCAUAGUCCUUCUAUUGCCAGCCCACCCAGUCAGAGUUCAUCUUGCUCUGAUGCCCCCUUGCU	0.876 ratio
UCCCAGCACACUGAUAAAAACUGUGGACUGGUUGCUUGUAUUUUCCUUAUUUUUUUUAAUCAGUUUUAUUAUGUAUGCUACCAUUCGAACUGAGAGCAUUCGGUGGUUGAUUCCAGGACA	0.696 ratio
GUUGGGUCAUGACCCCUAUAGGUUAGGUCAUGAUGCUUACAGGUUAGGGCAGGACCCGUAUAGAUUAGGCCAUGAUCCCUAUAGACUAACUCCUGAUCCCUAUAGGAUGUCACCUAGACC	0.756 ratio
UUUCUUUAUUUUUAUCUUCCCUUUAUUUUCUUUCUUUCUUUUUCUUUCUUUCUUUUUUUUCUAAUGUUGUUACCCACGCCAUUUUACGUCUCCUUCACUGAAGGGCUAGAGUUUUAACUU	9.27 ratio
GGAGGAAGGGCUCACAAACUCAAAGGAAAAAACUAUUAAGAGUUUCUAGUAGUUAAAAGCUAGAAAGAUUAAGACAACUUUACAAAUGAACAAUUAAAAAGAAAAAGGAUAUGGAAACUA	0.543 ratio

Single results of other studies
Molecule	target	test	system	conditions	scale	quantity	result
PhoQ, residues 284 288 289 292 302 303 TLSLKA	PhoP, residues 12 14 15 18 19 VQALL (Escherichia coli, UniProt P23836)	Sort-seq, refers to: YFP reporter	E. coli	PhoQ-PhoP variant library, added: 10 µM Mg2+	reference: high Mg2+ state, higher = stronger signaling	fold induction	36.8
